Published values collected from several papers.
Each numbered part is a random draw from the data of one study; scales do not carry over between parts.

Series 1
Target: RNA binding protein fox-1 homolog 2, RRM domain, GST-SBP tag (RBFOX2, Homo sapiens, UniProt O43251-10, residues 100-194)
Technique: RNA Bind-n-Seq
Molecule type: RNA
Sample: in vitro
Tested at: 365 nM
Setting: natural RNA segment, single round, ends assumed
Baseline: no-protein control
Direction: higher = stronger binding
Shared flanks, not repeated: GGGAGUUCUACAGUCCGACGAUC … UGGAAUUCUCGGGUGCCAA
Residues (chain): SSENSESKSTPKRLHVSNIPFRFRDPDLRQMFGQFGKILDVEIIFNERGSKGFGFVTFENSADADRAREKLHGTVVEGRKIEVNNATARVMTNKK
Sequence | RBNS enrichment (R)
AUACUCACUUGAGUCAGGCUCCCUCUGGCAGGAGGGAGCACUGUGGAUGUCUGCGCCAGGGCCAGCCACAUGUGCAGUUUCUCUGACCCUUUUGCCUUGACAGGUCUCUC | 0.566
CAGUUUCCAGCUAGUCCUAGAGUUCUAUAUUUCUACAUAGUUGAAUUAUUUUAUCAUGCGGUUGCUGGGGAAUACAACUAACACUUUUGAAGCUACUAAUUUUAUGUCAA | 0.626
AUGGUCUGGUGCCUAGCUGGGAGUGAGCAGCAGCCCAUCCCCUGUUCACUUUCUCUAGCCCAUCAUUACCUGUGAACUGCAGUGGGGCAGUCAUGGCAAAUAGAAUUGGG | 0.466
GUUCUCAUGGGCAGGCUCAGGUCUGUCCCGCUGCCCUGGGCACGAGGUCUCCUGAGGACCUGGGCCUGUUCUGCUCCUAGGAGACCUGAGCCCGUUACCGCGUGACUCCC | 0.254
GAAUUAUAAAUAUCUCCUUUUUCCUCGCUUCAUGCUAACUUGUCUCUAGAUAAAAUCUUAUUUCUUCAUACAUUGGACCACAAGGCAUAAAGAAGGUAGCUCAGCGCCAC | 0.274
GGCCAAGGGCAGAGGAUGUAAUGAGGGGUGGAGUGAGGAUGUGGAGAGAGAGCAGAGAGCGCCUCCUAUUCUACCGCGGCUGCCUCUGCCCCCACAGCACCCACAGAUCC | 0.901
AGCAUACAGGAUGGGGAGUCUGGUGUAUUCAGUGUUCACAGUCAGCAGACAUGGUGACCUGGUGGGAGACUUUAUUUAUCCAGUGUGGUGAUAGCAUGACCCUCCAUGCU | 0.452
UCACAAGAACAGCACAGGAAAGUUCUGCCCCCGUGAUUCAAUUACCUCCCACUUGGUCCCACCCACGACACGUGGGAAUUGUGGGAGCUACAAUUCAAGAUGAGAUUUGG | 0.813

Series 2
Target: Sal-like protein 4, full length isoform B (SALL4, Homo sapiens, UniProt Q9UJQ4-2, residues 1-616)
Technique: universal PBM
Molecule type: double-stranded DNA, one strand shown
Sample: in vitro
Tested at: not given
Setting: 8-mer, flanks averaged, mean of replicates
Direction: higher = stronger binding
Target sequence (chain): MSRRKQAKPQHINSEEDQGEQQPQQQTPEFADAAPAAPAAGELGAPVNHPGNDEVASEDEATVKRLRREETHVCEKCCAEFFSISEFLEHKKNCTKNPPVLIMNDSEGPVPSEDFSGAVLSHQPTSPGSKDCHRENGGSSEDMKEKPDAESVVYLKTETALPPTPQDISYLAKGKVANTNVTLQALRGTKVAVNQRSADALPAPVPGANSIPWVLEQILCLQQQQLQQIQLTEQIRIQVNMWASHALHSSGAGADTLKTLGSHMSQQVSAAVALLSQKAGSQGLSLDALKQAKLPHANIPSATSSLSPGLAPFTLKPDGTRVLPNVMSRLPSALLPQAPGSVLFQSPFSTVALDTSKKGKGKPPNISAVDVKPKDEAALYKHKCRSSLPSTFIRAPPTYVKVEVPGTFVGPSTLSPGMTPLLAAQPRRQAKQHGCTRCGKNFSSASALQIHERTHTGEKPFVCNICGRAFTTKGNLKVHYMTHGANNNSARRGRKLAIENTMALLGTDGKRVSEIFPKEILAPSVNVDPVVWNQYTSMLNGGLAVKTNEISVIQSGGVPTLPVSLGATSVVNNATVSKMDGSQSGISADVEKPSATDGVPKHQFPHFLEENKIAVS
Sequence | E-score
AACAGAAC | 0.121
AAGAACTC | 0.0466
CAATGCTC | -0.00414
CCGATTCA | 0.078
CAGTGCAA | 0.0301
TCCCAGGA | -0.292
GACCAACA | 0.0737
GTACTCCA | -0.136
CAAATCAA | 0.223
GAATCGTC | -0.0837
CTTTACCA | 0.123
CTGAACGA | -0.123
GGATTGAC | -0.0241
CCGTGCTC | -0.305
TGCAGGAA | -0.0418
CACACCTC | -0.126
GCGAGCCA | -0.197
AGGAATAG | 0.109

Series 3
Target: Phosphate system positive regulatory protein PHO4, full length, GST-tagged (PHO4, Saccharomyces cerevisiae, UniProt P07270, residues 1-312)
Technique: competition protein-binding microarray
Molecule type: double-stranded DNA, one strand shown
Sample: in vitro
Tested at: 2 µM
Setting: whole 60-bp probe, lowest competitor level
With: Cbf1 competitor, 0.05 µM
Direction: higher = stronger binding
Shared flanks, not repeated: … GTCTTGATTCGCTTGACGCTGCTG
Residues (chain): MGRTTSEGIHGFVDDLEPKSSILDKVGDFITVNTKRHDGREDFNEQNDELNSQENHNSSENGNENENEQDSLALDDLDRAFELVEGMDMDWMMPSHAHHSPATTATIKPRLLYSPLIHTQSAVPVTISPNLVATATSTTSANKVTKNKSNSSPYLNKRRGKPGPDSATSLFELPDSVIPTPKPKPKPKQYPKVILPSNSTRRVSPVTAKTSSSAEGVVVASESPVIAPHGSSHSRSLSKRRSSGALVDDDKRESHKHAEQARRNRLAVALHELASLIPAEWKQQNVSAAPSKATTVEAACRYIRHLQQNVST
Sequence | fluorescence intensity
GAGTAACATTACCATCACGCTAGTACTGCTAGATTA | 5480 a.u.
TGCTATCCCGGCGAGCCCGTGGCCGAGGACCTCGCT | 7940 a.u.
CATACCCAACCTTTTCACGTGGAGTAAGATATTTGT | 15400 a.u.
CATACCCAACCTTTTCACGTGTGGTAAGATATTTGT | 13800 a.u.
TCTCTTCTATCTTTAAAAGCAGGATGTGTTTCTTCC | 4880 a.u.
TGCGCAACAACTTTTCACGTGCTGTTATGTCTAGAA | 15100 a.u.
AAATTACTAAGTTGGGCTGTGGGTGACGCCGTATGA | 4130 a.u.
GAGCTCTTTGGCGGCAACGTGATGGGCGAGTTGGTT | 10400 a.u.
AGAAGGTCAAGGAATCTCGTGATGGCATCAAACTAG | 5890 a.u.
CATACCCAACCTTGTCACAATACTTAAGATATTTGT | 4030 a.u.
AGAATTTGTCAACAACATGTGGGCTTGGGATAAGCC | 11100 a.u.
GTCTTGTCTCATTGAAGAGTGGGTGTCCCCACTTCA | 3810 a.u.
CTTTCCCGATCTTGTAGAGTGGGTGTAGCACATTTG | 4570 a.u.
CCCTTCCAAAACTATCACATGTAACCATGATGAACC | 8610 a.u.
ATGAAATAACATCCACACGTGTAAGAATATATAATT | 17900 a.u.
ATCCCATTGGGTAAAAACGTGGTCGTCAAATGGCAA | 13900 a.u.
CCGATGGCACAACACCATGTGATGGGTTGGGAGTGG | 10700 a.u.
ACCATCTTGACTAACAACGTGTACAACTCTTTTGAA | 13900 a.u.
AAATTACTAAGTTGTCACGTTACTTACCCCGTATGA | 8770 a.u.

Series 4
Target: TAR DNA-binding protein 43, full length, His tag (TARDBP, Homo sapiens, UniProt Q13148, residues 1-414)
Technique: RNA Bind-n-Seq
Molecule type: RNA
Sample: in vitro
Tested at: 20 nM
Setting: 6-mer, flanks averaged, single round
With: 150 mM KCl
Baseline: input library
Direction: higher = stronger binding
Sequence | 6-mer enrichment (R)
CUCAUU | 0.567
GAAUUC | 0.622
CCGACG | 0.908
UGUAGA | 0.954
UAGGGC | 1.91
GGAUAG | 1.63
AAGCAA | 0.672
UGUAGC | 0.857
AGUAGA | 0.882
UGCGCU | 0.773

Series 5
Target: Interferon regulatory factor 7, full length, phosphomimetic (IRF7, Homo sapiens, UniProt Q92985, residues 1-503, S101K/S471D/S472D/S475D/S476D/S477D/S483D/S484D/S487D)
UniProt Q92985, sequence (whole entry, unmodified, looked up): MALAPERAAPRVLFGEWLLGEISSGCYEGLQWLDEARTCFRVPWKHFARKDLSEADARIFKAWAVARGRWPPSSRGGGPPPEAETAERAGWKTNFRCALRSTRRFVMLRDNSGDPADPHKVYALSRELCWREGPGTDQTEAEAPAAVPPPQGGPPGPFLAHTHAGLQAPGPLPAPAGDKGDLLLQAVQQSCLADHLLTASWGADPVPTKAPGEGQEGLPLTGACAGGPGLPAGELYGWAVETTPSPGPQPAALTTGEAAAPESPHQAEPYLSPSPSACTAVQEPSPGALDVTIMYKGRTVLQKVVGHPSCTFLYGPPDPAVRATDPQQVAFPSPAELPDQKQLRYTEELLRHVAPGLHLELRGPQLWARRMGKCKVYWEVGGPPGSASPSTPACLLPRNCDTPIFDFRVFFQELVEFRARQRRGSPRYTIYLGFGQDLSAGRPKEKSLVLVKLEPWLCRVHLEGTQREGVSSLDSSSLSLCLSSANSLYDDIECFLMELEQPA
Technique: protein-binding microarray
Molecule type: double-stranded DNA, one strand shown
Sample: in vitro
Tested at: 250 nM
Setting: 60-bp whole probe
With: salmon DNA 0.4 mg/ml
Baseline: random background probes
Direction: higher = stronger binding
Shared flanks, not repeated: GCCTAGCAC … GTCTTGATTCGCTTGACGCTGCTG
Sequence | log fluorescence
GACGAACTGAGTTTCGTGACGTGCTAG | 1.6 z-score
GACGATATCGGGAGTGGAGACGTGCTA | -0.52 z-score
GACGGTTTAGGGACTGGGGACGTGCTA | -0.172 z-score
TTCCTTTACTTTCTTTTTTTGTGCTAG | 2.28 z-score
GACGATCTCAGTATCGAGAGGTGCTAG | -0.189 z-score
TTAGGTCCCGGTTTCGGTTAGTGCTAG | 10.2 z-score
GACGATTTCAGACGGGAGACGTGCTAG | -0.0811 z-score
TTAGGTTTCGGCCTCGGTTAGTGCTAG | 3.11 z-score
CTTGCTCTTGTTTTCACAGGGTGCTAG | 0.69 z-score
GACGGTATCGACTATTGGGACGTGCTA | -0.271 z-score
GACGATATCGGGATTGGAGACGTGCTA | -0.3 z-score
GAGGGTCTCCTACTGCTGACGTGCTAG | -0.427 z-score
TTAGAACTCAGACTGGATTAGTGCTAG | -0.264 z-score
GACGATTTCACTTCCGAGACGTGCTAG | 0.493 z-score
TCATAAACTAGAAACTGAACTGTGCTA | 0.969 z-score
TTAGGTTTCCGTTCCCTTTAGTGCTAG | 6.23 z-score
TACGATCTCAGTTTCGAGACGTGCTAG | 3.93 z-score
TTAGATATCAGTCTAGATTAGTGCTAG | -0.204 z-score
TCATTTCTCAAATGTTTTACTGTGCTA | 1.74 z-score

For quick reference, copied from above (series 5):
Sequence | log fluorescence
GACGATCTCAGTATCGAGAGGTGCTAG | -0.189 z-score
TTAGGTCCCGGTTTCGGTTAGTGCTAG | 10.2 z-score
GACGATTTCAGACGGGAGACGTGCTAG | -0.0811 z-score
TTAGGTTTCGGCCTCGGTTAGTGCTAG | 3.11 z-score
CTTGCTCTTGTTTTCACAGGGTGCTAG | 0.69 z-score
GACGGTATCGACTATTGGGACGTGCTA | -0.271 z-score
GACGATATCGGGATTGGAGACGTGCTA | -0.3 z-score
GAGGGTCTCCTACTGCTGACGTGCTAG | -0.427 z-score
TTAGAACTCAGACTGGATTAGTGCTAG | -0.264 z-score
GACGATTTCACTTCCGAGACGTGCTAG | 0.493 z-score
TCATAAACTAGAAACTGAACTGTGCTA | 0.969 z-score
